# Results gathered from unrelated publications.
# Each numbered part is a random draw from the data of one study; scales do not carry over between parts. Positions count from the first letter of the parent shown.

# Series 1
# Target: Histone acetyltransferase KAT6A, winged helix 2, GST fusion (KAT6A, Homo sapiens, UniProt Q92794, residues 85-181)
# Technique: protein binding microarray
# Form: double-stranded DNA, one strand shown
# Matrix: in vitro
# Concentration: not given
# Setting: 8-mer, flanks averaged, mean of 2 arrays, mostly near background
# Baseline: not given
# Direction: higher = stronger binding
# Target sequence (chain): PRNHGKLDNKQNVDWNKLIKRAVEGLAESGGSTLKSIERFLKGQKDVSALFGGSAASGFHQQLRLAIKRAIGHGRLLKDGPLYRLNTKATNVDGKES
Oligonucleotide,E-score
ACGATGAG,0.0192
GCTATAAA,0.0379
GGGATGAA,-0.00571
CCCCACCA,0.217
CATCCATG,-0.0789
AATCACGT,-0.0745
GAGACATC,-0.0307
GAACCGTA,-0.297
CAGTAAAC,-0.0426
CCTTGGGC,0.0641
GCGGTTGA,-0.0783
AAGGGGAC,-0.0824
CAGATCAA,0.0364
AATCAGCT,0.0404
CTTCGTAC,0.0841
ACCGGCGG,0.146
CGGTTATC,-0.135
AGTCGGCC,-0.0186
CTGCCACC,0.0227
ATCGAATG,-0.111

# Series 2
# Target: ABI1, truncated, D143A, DHFR fusion (Arabidopsis thaliana)
# Technique: DHFR PCA, deep sequencing
# Matrix: yeast
# Setting: methotrexate growth selection, single substitutions
# With: (+)-ABA 58 µM
# Baseline: wild-type fitted maximum
# Direction: higher = stronger binding
# Starting sequence: PYL1, truncated, DHFR fusion (Arabidopsis thaliana); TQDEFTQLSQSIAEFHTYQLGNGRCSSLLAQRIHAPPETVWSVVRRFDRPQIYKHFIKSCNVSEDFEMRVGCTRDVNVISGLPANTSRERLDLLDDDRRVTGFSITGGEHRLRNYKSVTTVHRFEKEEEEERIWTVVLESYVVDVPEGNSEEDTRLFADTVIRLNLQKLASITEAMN; partner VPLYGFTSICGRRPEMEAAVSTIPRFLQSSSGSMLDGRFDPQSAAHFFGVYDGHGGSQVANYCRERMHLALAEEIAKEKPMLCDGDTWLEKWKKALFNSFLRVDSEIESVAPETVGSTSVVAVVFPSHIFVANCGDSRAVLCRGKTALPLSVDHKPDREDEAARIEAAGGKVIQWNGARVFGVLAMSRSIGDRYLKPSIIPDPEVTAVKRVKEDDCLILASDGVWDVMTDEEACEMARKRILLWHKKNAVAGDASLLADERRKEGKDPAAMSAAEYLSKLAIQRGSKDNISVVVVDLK
Change,relative binding score [%]
L91T,3.21
D75P,-2.85
V118E,3.06
D48G,32
A30Y,88.3
T86A,77.4
S27E,33.2
E174C,68.8
I162E,3.84
R88P,-8.15

# Series 3
# Target: Centromere-binding protein 1, full length, N-terminal tag (CBF1, Saccharomyces cerevisiae, UniProt P17106, residues 1-351)
# Sequence of UniProt P17106 (whole entry, looked up): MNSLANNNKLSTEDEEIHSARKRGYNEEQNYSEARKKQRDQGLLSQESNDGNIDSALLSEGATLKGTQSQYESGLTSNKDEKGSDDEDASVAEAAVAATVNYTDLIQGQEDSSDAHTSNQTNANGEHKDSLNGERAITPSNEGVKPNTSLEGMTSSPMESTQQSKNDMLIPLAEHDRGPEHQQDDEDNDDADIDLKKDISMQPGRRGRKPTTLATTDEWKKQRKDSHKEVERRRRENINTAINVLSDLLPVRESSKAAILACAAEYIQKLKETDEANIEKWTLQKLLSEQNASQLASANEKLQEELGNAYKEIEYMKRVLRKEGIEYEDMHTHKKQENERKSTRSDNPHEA
# Technique: protein-binding microarray
# Form: double-stranded DNA, one strand shown
# Matrix: in vitro
# Concentration: 0.8 µM
# Setting: whole 60-bp probe, no competitor
# Direction: higher = stronger binding
# All sequences stand within: … GTCTTGATTCGCTTGACGCTGCTG
Oligonucleotide,fluorescence intensity [a.u.]
GAAATCAATTCCCATCACGTACCTTGCTTTCTATAG,698
GAAGGTAGTAGTACTAACATCAGTAAAAGTAACTAG,505
CTATGCTTTTGTTCGCATGTGGTGTTATTCCAGTTC,792
CTACACCGCTCAGATCATCAGGGATAAACACTATTC,540
GAACATTTCTCTGCTCACGTTTAATAACAGGGTTAG,826
GAAATAGATCCTGAGAACGTGTTTAACATCTGCTAG,616
GAAGTGAAATTTCAGCTGACAGCGAGTTTCATGTAG,587
CTAATATCAAATTGTCACCCGGTATAGATATACTTC,579
GAACGTATTCTTGTGCACACGCCTGTTACTTCTTAG,557
CTACTACCACACTTTCATGTGATGAAACGTGAATTC,839
CTATGGGCGAAGGTGCACGTTCTGGTATTACACTTC,599
CTAGGCGAAAAAATCCAGCTGATGTTTGTTTCCTTC,511
CTATGAAATTTGTTTCTCGTGACATTAATGATCTTC,1770
GAACTTACCCCTCTACACGTGGCTTCTCAGAAGTAG,2000
CTAAAAGCTCAGTCGCGCGTGGCCTTTCTCTATTTC,465
CCTAACTACTATAGTCACATGCAATAGCTTCGTACA,2650
GAAAAAAGTAAGAATGCACAGGTGACTAGTGGTTAG,884
TGTACGAAGCTATCTCACGTTTTTATAGTAGTTAGG,630

# Series 4
# Target: RNA binding protein fox-1 homolog 2, RRM domain, GST-SBP tag (RBFOX2, Homo sapiens, UniProt O43251-10, residues 100-194)
# Technique: RNA Bind-n-Seq
# Form: RNA
# Matrix: in vitro
# Concentration: 365 nM
# Setting: natural RNA segment, single round, ends assumed
# Baseline: no-protein control
# Direction: higher = stronger binding
# All sequences stand within: GGGAGUUCUACAGUCCGACGAUC … UGGAAUUCUCGGGUGCCAA
# Target sequence (chain): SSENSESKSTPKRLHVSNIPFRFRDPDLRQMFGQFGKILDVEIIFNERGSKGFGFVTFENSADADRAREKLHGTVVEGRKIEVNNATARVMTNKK
Oligonucleotide,RBNS enrichment (R)
GUAGAGCCAGGGGUGCAAGUGCCAUCCACACUUGCAGUGAAUGGCUUUUCCUUUUAGGUUUAAGUCCUGUCUGUCUGUAAGGCGUAGAAUCUGUCCGUCUGUAAGGCGUA,0.236
CCGUGCCCGCUGACUGUCUGGGCAGCCUUGCAGUGGGGGCUGAUGUGCUGUCUUAUUUUUGCUGUCACAAUUUGUAAACUCAGUGUGACUUCUAUAUGAGUGUUUUAACC,0.944
CCCCGGUCCAGGGGAGAGUCACUAGUUGUACCCUACUCCAUUAGGUCCCAAAUGGGGGCCCCAUUUCACCUGUAUCAGGACUCUGAGCAUCCCCAGCUGCCCCACAUCUU,0.514
GCAACAGUGGCCCGUGCCAAAGCACUUACCAAAGUGAUGAUGACUAAGGCCCUGUCAUUAAUUCCAUGUGUCAAUACUGCCCUGUAGUACACAGAGCAGACAAGAAAGAA,0.247
CCCAAAAGGUUACUCUCAUAACAUAAGCUAGCCCCUUCCGGAAGUCAUGGUGGUGGGUUUCUAUCAUCCUGUCUCUGUUUAAAAGGGACUGAAUAGUUGGGUUUUAAAAG,0.253
UGUAAAUGGUAACUGACAUUUAAUUAUUAGAAGUACUUACCCCUGCCUUCCUCCAUUUUUAUUCAUGGCUACUUGAGAAAGCAAAAGGAAAAAAUAAUAGUUAUCAGUAG,0.428
UCCCUCGCUCGCUCCGGCUUCUCUGCUUUCCCAGGUCUCAGAAAAGAAACCCCUCCACAUCCCCGAGGCAGCCCGAUGGCUUCCAGGGUGGCUCGGGCAAGUGGAAGCAC,0.581
AGGAGACUGUAGAGUUUUGGGGGAGGGGUGGCAAGGGUGCCCAAGCGUCUCCCACCUUUGGUACCAUCUCUAGUCAUCCUUCCUCCCGGAAGUUGACAAGACACAUCUUG,0.276
CUGCUCUCAAGGUUAAUUUUAACUUGGAGACUUUCAGCUCCUUGAAAGACUAUUAAUCCCUCCAGCCUGAUGACCAGUUCUCAGCUGUGGUGUGGCAGCUGAGGAAUUGG,0.647
AUGGGAGCUUACUGGGUUAGAAGUCAGGACACUGAGUUUCAAUCCUCACUUAGUAGUCUGUGGCCCUCUUUGGCACAUUAACCUCCCUCCUUGAUCCUCAGGCUGCACCU,0.272
ACUUGACAUGGUAACAUCACUAUUAUAUACUAGAAGCAAGAAUUUUACACUUAUGCUCUAAGUGAUCCUUUUAAAAAUUUUCUGAACUAUUUGAGGAAAGUAUUAUUUGU,0.61
CAGUUCCUCAUCCACAGUGCUCCCACCUGAGGACCUGGCCCUGUGUGGAAAUUGAUUGGGAUUUGAUUGUCAGCAACUUGUAUGAGAUUCAUUAAAUGGCCCUGGCAUAC,0.485

# Series 5
# Target: Interferon regulatory factor 5, full length, phosphomimetic (IRF5, Homo sapiens, UniProt Q13568-2, residues 1-514, K96S/S451D/S453D/S456D/S462D)
# Technique: protein-binding microarray
# Form: double-stranded DNA, one strand shown
# Matrix: in vitro
# Concentration: 250 nM
# Setting: 60-bp whole probe
# With: salmon DNA 0.4 mg/ml
# Baseline: random background probes
# Direction: higher = stronger binding
# All sequences stand within: GCCTAGCAC … GTCTTGATTCGCTTGACGCTGCTG
Oligonucleotide,log fluorescence [z-score]
AAGCCAGCCAAGGCCACTGTGTGCTAG,-0.868
CCTTCTCTAACCTCTCTAATAGTGCTA,0.326
TACTCTTGTGACTATGGACCGTGCTAG,0.202
TTAGGTATCGGTTTCGTTTAGTGCTAG,9.7
GACGGACTGGGAATCGGGACGTGCTAG,-0.574
GACGATTTAAGTTTCGAGACGTGCTAG,4.86
TTAGGTTCCCTTTTCCTGTAGTGCTAG,0.404
GACGATCTCAGTTTCGAGAAGTGCTAG,5.24
TTAGGTATCGGTCTTGGTTAGTGCTAG,6.58
TCATCTCTCTGTGACACACTGTGCTAG,0.325
TGCTCCTTATGGCTAAAGGGGTGCTAG,-0.413

# Series 6
# Target: Sal-like protein 4, full length isoform A (SALL4, Homo sapiens, UniProt Q9UJQ4, residues 1-1053)
# Sequence of UniProt Q9UJQ4 (whole entry, looked up): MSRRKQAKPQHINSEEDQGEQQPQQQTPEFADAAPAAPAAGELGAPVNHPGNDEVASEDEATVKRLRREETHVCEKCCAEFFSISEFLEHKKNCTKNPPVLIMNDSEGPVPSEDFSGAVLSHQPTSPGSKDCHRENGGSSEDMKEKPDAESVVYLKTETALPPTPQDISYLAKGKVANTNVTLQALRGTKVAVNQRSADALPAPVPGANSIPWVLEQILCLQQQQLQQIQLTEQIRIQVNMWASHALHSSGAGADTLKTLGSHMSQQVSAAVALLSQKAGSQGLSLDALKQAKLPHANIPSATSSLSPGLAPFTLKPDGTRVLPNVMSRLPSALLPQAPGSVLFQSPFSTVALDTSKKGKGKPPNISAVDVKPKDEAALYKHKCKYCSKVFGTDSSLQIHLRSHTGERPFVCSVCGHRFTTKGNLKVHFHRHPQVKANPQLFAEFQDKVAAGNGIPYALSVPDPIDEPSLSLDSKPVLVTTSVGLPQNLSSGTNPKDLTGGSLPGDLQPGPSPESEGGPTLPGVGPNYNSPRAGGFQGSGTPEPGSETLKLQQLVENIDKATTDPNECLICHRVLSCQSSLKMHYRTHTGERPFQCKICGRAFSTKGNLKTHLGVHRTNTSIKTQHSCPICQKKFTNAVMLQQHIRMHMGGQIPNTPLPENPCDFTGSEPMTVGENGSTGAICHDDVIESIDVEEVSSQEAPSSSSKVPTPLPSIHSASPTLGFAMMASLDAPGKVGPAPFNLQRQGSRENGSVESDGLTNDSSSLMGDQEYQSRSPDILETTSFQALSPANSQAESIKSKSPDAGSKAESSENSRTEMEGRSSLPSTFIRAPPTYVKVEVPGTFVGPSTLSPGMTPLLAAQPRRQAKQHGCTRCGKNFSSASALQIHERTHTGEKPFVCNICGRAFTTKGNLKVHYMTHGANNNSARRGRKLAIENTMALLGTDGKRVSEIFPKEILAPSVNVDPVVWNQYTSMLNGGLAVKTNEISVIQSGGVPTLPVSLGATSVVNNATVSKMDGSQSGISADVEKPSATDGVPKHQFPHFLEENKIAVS
# Technique: universal PBM
# Form: double-stranded DNA, one strand shown
# Matrix: in vitro
# Concentration: 600 nM
# Setting: 8-mer, flanks averaged, mean of replicates
# Direction: higher = stronger binding
Oligonucleotide,E-score
GCGCTTTA,0.0294
CTGCTTCC,-0.124
GGAAGCAA,-0.0647
AGAGATGG,0.067
ACGTGCTA,0.0743
TATGGCCA,0.0694
GGCCGCCA,-0.309
TCCTATCA,0.0905
AGCTAGCC,-0.242
CCCGCTCC,-0.319
CCAGTGAG,-0.283
GCTTTTGA,-0.0672
AAATCCAC,0.0659
CCGTGAAA,0.00931

# Series 7
# Target: Ras GTPase-activating protein-binding protein 1, full length (G3BP1, Homo sapiens, UniProt Q13283)
# Sequence of UniProt Q13283 (whole entry, looked up): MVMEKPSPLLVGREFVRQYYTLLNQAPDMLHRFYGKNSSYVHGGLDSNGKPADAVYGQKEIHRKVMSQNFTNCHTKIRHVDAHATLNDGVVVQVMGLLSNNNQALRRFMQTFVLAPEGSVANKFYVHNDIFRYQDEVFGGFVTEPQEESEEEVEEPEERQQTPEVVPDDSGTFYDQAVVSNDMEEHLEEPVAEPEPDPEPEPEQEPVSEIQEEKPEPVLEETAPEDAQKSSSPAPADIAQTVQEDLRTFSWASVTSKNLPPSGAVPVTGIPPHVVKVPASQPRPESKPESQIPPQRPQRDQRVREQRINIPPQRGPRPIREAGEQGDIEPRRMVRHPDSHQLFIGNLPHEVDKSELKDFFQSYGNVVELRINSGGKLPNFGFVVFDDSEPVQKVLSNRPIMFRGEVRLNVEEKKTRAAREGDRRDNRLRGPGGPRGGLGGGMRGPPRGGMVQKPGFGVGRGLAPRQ
# Technique: RNA Bind-n-Seq
# Form: RNA
# Matrix: in vitro
# Concentration: 200 nM
# Setting: whole 134-nt RNA, ends assumed
# With: 150 mM KCl
# Baseline: input library
# Direction: higher = stronger binding
# All sequences stand within: GGGAGUUCUACAGUCCGACGAUC … UGGAAUUCUCGGGUGUCAAGG
Oligonucleotide,log2 enrichment
AAGUCCUGUGCUACACAUCGUAUGUACCGAAUCGGGAAAGGGGAAAGGGGAAAGGGAAAGUAUUAUGUUACGCCGUUCGGAUCUGCACUU,0.312
GUCCUGUGCUACACAUCGUAUGUACCGAAUCGGUUUUUGGGUUUUUGGGGUUUUUGGGGAAAGUAUUAUGUUACGCCGUUCGGAUCUGCA,-0.534
UCCUGUGCUACACAUCGUAUGUACCGAAUCAAAUUUUUAAACCCCCCCAAACCCCCAAAAAAGUAUUAUGUUACGCCGUUCGGAUCUGCA,-0.0248
CUCAAGUCCUGUGCUACACAUCGUAUGUACCGAAUCGGGCCGGGCCGGCCGGGGAAAGUAUUAUGUUACGCCGUUCGGAUCUGCACUUCC,-0.277
ACCAUGCAGGUGGGCAUCUUUGGGAAGUGGGGCAAGGGGGGGAUAGGGAGGGGGGUAACACUUUGGGAACAGGCGGUCCCAGGUCGUUUC,1.15
UGUGAGCGGAGCCUGGAGGAGCUGCUGCACUACGUGGGCCAGCUGCGGGCUGAGCUGGCCAGCGCAGGUGGGUGGCCACCCUUGCAAGUG,0.117
CUCAAGUCCUGUGCUACACAUCGUAUGUACCGAAUCGGGUGGGGUGGGUGGGGAAAGUAUUAUGUUACGCCGUUCGGAUCUGCACUUCCA,0.905
